Assay results pooled from the literature.
Lines come from different studies, so protocols differ.
TDP1: Tyrosyl-DNA phosphodiesterase 1 (TDP1, Homo sapiens, UniProt Q9NUW8)
UniProt Q9NUW8, sequence (whole entry, looked up): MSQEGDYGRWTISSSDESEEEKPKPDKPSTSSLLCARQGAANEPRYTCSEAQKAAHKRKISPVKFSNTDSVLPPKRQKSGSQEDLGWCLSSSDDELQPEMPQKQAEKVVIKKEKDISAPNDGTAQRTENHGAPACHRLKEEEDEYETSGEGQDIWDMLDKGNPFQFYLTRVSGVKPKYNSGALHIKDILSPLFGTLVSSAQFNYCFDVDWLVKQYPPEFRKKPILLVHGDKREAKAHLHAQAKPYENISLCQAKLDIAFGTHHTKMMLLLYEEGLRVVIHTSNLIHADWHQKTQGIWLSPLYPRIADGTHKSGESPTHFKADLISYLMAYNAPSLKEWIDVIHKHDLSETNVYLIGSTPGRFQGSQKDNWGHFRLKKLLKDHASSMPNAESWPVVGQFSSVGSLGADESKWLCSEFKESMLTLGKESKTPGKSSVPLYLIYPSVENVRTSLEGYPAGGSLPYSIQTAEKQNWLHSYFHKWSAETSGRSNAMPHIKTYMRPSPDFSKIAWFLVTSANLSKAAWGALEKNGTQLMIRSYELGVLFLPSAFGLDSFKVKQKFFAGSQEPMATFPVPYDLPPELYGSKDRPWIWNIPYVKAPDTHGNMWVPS
Uncharacterized protein: Uncharacterized protein (Trypanosoma brucei brucei, UniProt Q386Q8)
UniProt Q9GZV3, sequence (whole entry, looked up): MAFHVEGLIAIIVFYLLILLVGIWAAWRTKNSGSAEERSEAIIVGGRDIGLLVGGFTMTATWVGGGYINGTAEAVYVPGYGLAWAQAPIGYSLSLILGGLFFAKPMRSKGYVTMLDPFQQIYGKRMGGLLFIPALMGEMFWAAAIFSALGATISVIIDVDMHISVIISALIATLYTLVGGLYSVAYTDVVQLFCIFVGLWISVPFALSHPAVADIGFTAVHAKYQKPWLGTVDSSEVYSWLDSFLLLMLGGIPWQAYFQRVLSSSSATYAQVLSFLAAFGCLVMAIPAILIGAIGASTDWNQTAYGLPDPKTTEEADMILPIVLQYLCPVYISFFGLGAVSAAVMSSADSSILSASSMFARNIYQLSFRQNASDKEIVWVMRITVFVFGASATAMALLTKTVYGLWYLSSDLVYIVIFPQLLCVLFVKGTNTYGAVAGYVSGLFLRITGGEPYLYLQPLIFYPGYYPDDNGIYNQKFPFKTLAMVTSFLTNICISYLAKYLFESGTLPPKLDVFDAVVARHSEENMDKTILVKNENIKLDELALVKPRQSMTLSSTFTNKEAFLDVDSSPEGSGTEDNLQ
UniProt P0A7A9, sequence (whole entry, looked up): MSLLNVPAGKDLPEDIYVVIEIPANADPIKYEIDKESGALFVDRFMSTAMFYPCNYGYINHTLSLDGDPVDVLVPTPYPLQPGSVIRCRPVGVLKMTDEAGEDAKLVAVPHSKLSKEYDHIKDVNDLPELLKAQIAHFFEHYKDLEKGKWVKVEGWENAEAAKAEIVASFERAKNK
UniProt Q9UKP6, sequence (whole entry, looked up): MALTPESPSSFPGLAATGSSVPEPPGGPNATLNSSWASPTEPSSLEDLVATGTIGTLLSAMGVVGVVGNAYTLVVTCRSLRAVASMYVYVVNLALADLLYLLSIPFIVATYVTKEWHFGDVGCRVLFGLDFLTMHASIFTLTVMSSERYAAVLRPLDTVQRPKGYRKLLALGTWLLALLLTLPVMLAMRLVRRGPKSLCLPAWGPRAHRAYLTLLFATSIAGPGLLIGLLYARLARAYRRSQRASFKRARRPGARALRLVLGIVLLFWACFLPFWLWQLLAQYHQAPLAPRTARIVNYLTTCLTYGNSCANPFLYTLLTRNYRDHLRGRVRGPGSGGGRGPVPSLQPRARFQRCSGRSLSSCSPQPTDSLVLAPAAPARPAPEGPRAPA
UniProt P42337, sequence (whole entry, looked up): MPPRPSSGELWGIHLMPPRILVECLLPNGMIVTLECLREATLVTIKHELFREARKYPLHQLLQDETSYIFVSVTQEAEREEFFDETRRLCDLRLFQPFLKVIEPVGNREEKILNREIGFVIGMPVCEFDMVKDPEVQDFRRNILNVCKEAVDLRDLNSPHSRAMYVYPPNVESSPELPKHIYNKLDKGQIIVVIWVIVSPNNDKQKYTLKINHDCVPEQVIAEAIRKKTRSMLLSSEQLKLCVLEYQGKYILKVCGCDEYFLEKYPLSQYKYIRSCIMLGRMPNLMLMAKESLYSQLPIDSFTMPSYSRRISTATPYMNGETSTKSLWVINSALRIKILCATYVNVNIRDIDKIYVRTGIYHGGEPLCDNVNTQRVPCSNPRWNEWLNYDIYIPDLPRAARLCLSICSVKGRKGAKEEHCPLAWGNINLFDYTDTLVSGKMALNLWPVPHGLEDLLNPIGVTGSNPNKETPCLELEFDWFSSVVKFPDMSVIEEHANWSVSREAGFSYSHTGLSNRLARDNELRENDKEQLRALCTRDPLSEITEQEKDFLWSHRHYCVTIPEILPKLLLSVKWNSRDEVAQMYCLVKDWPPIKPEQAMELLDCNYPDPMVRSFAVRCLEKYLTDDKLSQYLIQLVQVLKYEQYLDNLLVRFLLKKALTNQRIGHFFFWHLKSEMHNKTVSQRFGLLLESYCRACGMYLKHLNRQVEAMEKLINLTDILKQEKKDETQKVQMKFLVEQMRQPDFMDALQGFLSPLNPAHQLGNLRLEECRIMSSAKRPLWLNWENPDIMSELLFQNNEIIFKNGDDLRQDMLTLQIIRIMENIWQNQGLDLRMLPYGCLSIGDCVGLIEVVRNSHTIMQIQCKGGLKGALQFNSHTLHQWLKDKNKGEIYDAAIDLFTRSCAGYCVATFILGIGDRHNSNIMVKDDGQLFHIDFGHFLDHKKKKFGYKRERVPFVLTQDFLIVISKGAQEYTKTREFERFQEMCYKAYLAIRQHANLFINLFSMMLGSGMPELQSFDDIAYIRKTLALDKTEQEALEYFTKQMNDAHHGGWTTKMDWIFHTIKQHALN

SMILES	target	assay	setting	inhibition [%]
O=C(O)c1ccc(Nc2c(-c3ccc(CON=Cc4cc(F)cc5c4OCOC5)cc3)nc3cc(-c4ccccc4)ccn23)cc1 (mixture of isomers)	TDP1	enzyme activity, inhibitor	100 µM, unpurified compound	23.9
O=C1c2sc(-c3ccc(N4CCC(CO)CC4)nc3F)nc2CCN1c1cccnc1	Urotensin-2 receptor (UTS2R, Homo sapiens, UniProt Q9UKP6)	ligand displacement, radioligand	1 µM	-2
Cc1nc2c(F)cc(-c3nc(Nc4ccc(CNC(=O)CCCCCCC(=O)NO)cc4)ncc3F)cc2n1C(C)C	Phosphatidylinositol 4,5-bisphosphate 3-kinase catalytic subunit alpha isoform, with p65 alpha (Pik3ca, Mus musculus, UniProt P42337)	enzyme activity	1 µM, p110α/p65α)(m mouse	27
CN(C)C=C(C=NOCc1ccc(-c2nc3cc(-c4ccccc4)ccn3c2Nc2ccc(C(=O)O)cc2)cc1)c1ncc(C(F)(F)F)cc1Cl	TDP1	enzyme activity, inhibitor	100 µM, unpurified compound	87.4
CC(=O)C1=C(C)Nc2ccccc2S1	Uncharacterized protein	enzyme activity, inhibitor, coupled colorimetric	30 µM, added: E. coli pyrophosphatase coupling	26.6
O=C1c2sc(-c3ccc(N4CCC(F)C4)nc3F)nc2CCN1c1cccnc1 (stereo not drawn)	High affinity choline transporter 1 (SLC5A7, Homo sapiens, UniProt Q9GZV3)	ligand displacement, radioligand	1 µM	13
O=C(CSc1nnc(-c2ccco2)c(-c2ccco2)n1)c1ccc(Cl)s1	Uncharacterized protein	enzyme activity, inhibitor, coupled colorimetric	30 µM, added: E. coli pyrophosphatase coupling	28.3
Cc1nn(C)c2nc(Cl)c(C=NOCc3ccc(-c4nc5cc(-c6ccccc6)ccn5c4Nc4ccc(C(=O)O)cc4)cc3)cc12 (mixture of isomers)	TDP1	enzyme activity, inhibitor	100 µM, unpurified compound	87.6
N#CSc1sc(N)nc1-c1ccccc1	Uncharacterized protein	enzyme activity, inhibitor, coupled colorimetric	30 µM, added: E. coli pyrophosphatase coupling	53.8
CN(Cc1ccc(/C=C/C(=O)NO)cc1)CC12CC3CC(CC(C3)C1)C2	human 5-HT2B receptor	agonist radioligand binding	0.05 µM	-11
COc1cccc(NC(=O)N2CCOc3ccccc32)c1	Inorganic pyrophosphatase (ppa, Escherichia coli, UniProt P0A7A9)	inhibitor, counter-screen, coupling enzyme alone	30 µM	-1
COc1ccc2ccccc2c1C=NOCc1ccc2nc(-c3ccccc3)c(Nc3ccc(C(=O)O)cc3)n2c1 (mixture of isomers)	TDP1	enzyme activity, inhibitor	100 µM, unpurified compound	-23.6

For quick reference, copied from above:
SMILES	target	assay	setting	inhibition [%]
O=C(CSc1nnc(-c2ccco2)c(-c2ccco2)n1)c1ccc(Cl)s1	Uncharacterized protein	enzyme activity, inhibitor, coupled colorimetric	30 µM, added: E. coli pyrophosphatase coupling	28.3
Cc1nn(C)c2nc(Cl)c(C=NOCc3ccc(-c4nc5cc(-c6ccccc6)ccn5c4Nc4ccc(C(=O)O)cc4)cc3)cc12 (mixture of isomers)	TDP1	enzyme activity, inhibitor	100 µM, unpurified compound	87.6
